Results from different studies.
Numbered parts are unrelated; each lists some results of a single study.

Study 1
Target: Histone acetyltransferase KAT6A, winged helix 2, GST fusion (KAT6A, Homo sapiens, UniProt Q92794, residues 85-181)
Technique: protein binding microarray
Form: double-stranded DNA, one strand shown
Matrix: in vitro
Tested at: not given
Notes: 8-mer, flanks averaged, mean of 2 arrays, mostly near background
Reference: not given
Direction: higher = stronger binding
Construct (chain): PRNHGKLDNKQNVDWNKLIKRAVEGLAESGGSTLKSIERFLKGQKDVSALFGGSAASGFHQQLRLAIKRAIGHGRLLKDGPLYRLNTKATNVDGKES
| Oligonucleotide | E-score |
| --- | --- |
| AACTATCG | -0.138 |
| ATTCACAG | -0.0116 |
| GTCAGGTA | -0.0389 |
| ACAGCTGA | -0.0899 |
| GCAGGTTA | -0.0109 |
| ACGGCGAC | 0.115 |
| ATCTTTGA | 0.0449 |
| ACACCCAG | -0.132 |

Study 2
Target: RNA binding protein fox-1 homolog 2, RRM domain, GST-SBP tag (RBFOX2, Homo sapiens, UniProt O43251-10, residues 100-194)
Technique: RNA Bind-n-Seq
Form: RNA
Matrix: in vitro
Tested at: 365 nM
Notes: natural RNA segment, single round, ends assumed
Reference: no-protein control
Direction: higher = stronger binding
Construct (chain): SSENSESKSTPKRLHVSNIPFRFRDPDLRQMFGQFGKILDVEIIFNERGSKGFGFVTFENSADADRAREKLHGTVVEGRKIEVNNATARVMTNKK
| Oligonucleotide | RBNS enrichment (R) |
| --- | --- |
| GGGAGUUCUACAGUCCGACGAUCAUUUUUGGGAAAGCAACGAGGUAAAAAUUAUGUUUCUCAGAUGCACUGCUACUUUGGCGUUAUUACUGUGUUCUCAGAAACUCGUUGUGCACCACUAGGAAUUAGUAGUAUGGAAUUCUCGGGUGCCAA | 0.608 |
| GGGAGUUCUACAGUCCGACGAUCCAUUCCAGUUUUUGUUUUUAAUCAGGCUUUCUCUGGGAACUAGGUCUUUGCACCAGAGAGCAUUUUGCAUUCUGGACUUGAUAGACGCACCCCUUUUUAUACAGAUGUUUUGGAAUUCUCGGGUGCCAA | 0.571 |
| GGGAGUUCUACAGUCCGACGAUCUUUGGUGAAAUAUCAAAAAAAUGCAAGUACAGCAUGCAUAUUUAAGAAUUUCUGAACUAACACUUGAAAUCACAUUUUAUAAAGAUUGUUGGUACUCAGAGUUGUAUUUGUGGAAUUCUCGGGUGCCAA | 0.72 |
| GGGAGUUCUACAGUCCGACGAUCUCCUGCCUUCUUCCUUGAGGGGCAGUUUGGGAAGGUGAUGGGUAUUAGUGGGGGACUGAGUUCAGGUUACCAGAACCAGUACCUCAGUAUUCUUUUUCAACAUGUAGGGCUGGAAUUCUCGGGUGCCAA | 0.29 |
| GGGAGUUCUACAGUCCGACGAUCGAAUUUGUCUGUGUACAACUCUAGAUGGAGUGGGCCAGCAGUAGCUGCCAGUCUUUCUCCCCUGCAGCUUCCUCUGCUUCUGGAAUGAACCAUGUAUCCUGGAGACCCUCUGGAAUUCUCGGGUGCCAA | 0.217 |
| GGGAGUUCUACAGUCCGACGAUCUCCCCCAGCCAGGUCCCCACCAGGCCUGUCUCCCAGCGUUUGUCUAAUAAACGCACCCCUCCUAAAAACGCCUACGAAAACAGCUCCUCUCCUGGCACAUCUGCCAACACUGGAAUUCUCGGGUGCCAA | 0.659 |
| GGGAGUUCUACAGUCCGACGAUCCAGAAUGAGAAAGGAAUGGUACUUAGGUGUUUGGUAUGCUGCUCACGUGAAGUCAGCCCACACCAGCCAAACCCUCGUGGAAGAUCUGCUGCAACCAUUAUCUUUGUUCUUGGAAUUCUCGGGUGCCAA | 0.93 |
| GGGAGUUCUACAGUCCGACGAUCGCAAGCUGCCGAACCAAAAGAAUUUGCACCCCGCUGCGGGCCCACGUGGUUGGGGCCCUGCCCUGGCAGGGUCAUCCUGUGCUCGGAGGCCAUCUCGGGCACAGGCCCACUGGAAUUCUCGGGUGCCAA | 0.786 |

Study 3
Target: Interferon regulatory factor 5, full length, phosphomimetic (IRF5, Homo sapiens, UniProt Q13568-2, residues 1-514, K96S/S451D/S453D/S456D/S462D)
Technique: protein-binding microarray
Form: double-stranded DNA, one strand shown
Matrix: in vitro
Tested at: 250 nM
Notes: 60-bp whole probe
With: salmon DNA 0.4 mg/ml
Reference: random background probes
Direction: higher = stronger binding
Constant ends, left off below: GCCTAGCAC … GTGCTAGGTCTTGATTCGCTTGACGCTGCTG
| Oligonucleotide | log fluorescence |
| --- | --- |
| GCCGGTATCGGTCTCGGGAC | 6.35 z-score |
| TTGCGTCTGGGTGTTTTCTA | 0.97 z-score |
| ACTAGTTTTCATTTTCTGAA | 3.33 z-score |
| TCATTTTTTTTCATCATACT | 1.82 z-score |
| TTAGATTTCGGTTCCGGTTA | 8.76 z-score |
| GACGGATTCCTACTGCTGAC | -0.156 z-score |
| GACGATTTCACTCTCGAGAC | 1.96 z-score |
| TCATATACACTTATGACACT | 0.575 z-score |

Study 4
Target: Replicase polyprotein 1ab, nsp13 helicase (rep, Severe acute respiratory syndrome coronavirus 2, UniProt P0DTD1)
Action: inhibitor
Tested at: 20 µM
| Structure (SMILES) | inhibition |
| --- | --- |
| CC(C)=CCC/C(C)=C/CC/C(C)=C/CC[C@]1(C)CCc2cc(O)cc(C)c2O1 | 3.68% |
| Nc1ccn([C@@H]2O[C@H](CO)[C@@H](O)[C@@H]2O)c(=O)n1 | -3.02% |
| COc1ccc(/C=C/CCCCOc2ccc(C(=O)c3cccc(C(=O)O)c3)cc2CCC(=O)O)cc1 | 13.4% |
| c1cnc2cc3c(cc2n1)[C@@H]1CNC[C@H]3C1 | 3.99% |
| CN1C2C=C(c3sccc3Br)CC1CC2 (stereo not drawn) | 1.06% |
| CN(C(=O)CCCOc1ccc2[nH]c(=O)ccc2c1)C1CCCCC1 | -5.99% |
| COc1cc(C(=O)N2CCOCC2)cc(OC)c1OC | 1.38% |
| CCN1CCCC(OC(=O)C(c2ccccc2)c2ccccc2)C1 (stereo not drawn) | -1.02% |
| CC(C)OC(=O)N[C@H]1Cc2c(n(Cc3ccccn3)c3ccc(C#N)cc23)C1 | 13.4% |
| [O-][S+](c1ccccc1)c1ccc2nnnn2n1 (stereo not drawn) | 40.3% |
| Cn1c(CNc2ccc(C(=N)N)cc2)nc2cc(C(=O)N(CCC(=O)O)c3ccccn3)ccc21 | 11.7% |
| Cn1cc([S+](C)[O-])c(=O)c2ccc(F)cc21 (stereo not drawn) | 1.42% |
| NC[C@H](O)c1ccc(O)c(O)c1 | 7% |
| Cc1[nH]c(/C=C2\C(=O)Nc3ccc(S(=O)(=O)N(C)c4cccc(Cl)c4)cc32)c(C)c1C(=O)N1CCN(C)CC1 | 4.62% |
| CCC[C@@H](NC(=O)N1C(=O)C(CC)(CC)[C@@H]1Oc1ccc(C(=O)N2CCN(C)CC2)cc1)c1ccc2c(c1)OCO2 | 2.25% |
| Cc1ccccc1C(C(=O)NC1CCCCC1)N(C(=O)Cn1ccnc1C)c1cccc(F)c1 (stereo not drawn) | 2.48% |
| Cc1ccc2nc(N)[nH]c(=O)c2c1Sc1ccncc1 | 1.69% |
| O=C(CCc1ccncc1)NNC(=O)N1Cc2ccccc2Oc2ccc(Cl)cc21 | 0.8% |
| COc1cc(-c2cc(-c3cccc(O)c3)cnc2N)cc(OC)c1OC | 30.6% |
| O=C(O)c1ccccc1Nc1cc(Cl)ccc1C(=O)O | 3.06% |
| Oc1noc2c1CCNC2 | -1.45% |
| COc1ccc(Cc2cnc(N)nc2N)cc1OC | 1.08% |
| Cc1csc2c(N[C@@H](C)CN3CCN(S(=O)(=O)c4ccc(Cl)c(Cl)c4)CC3)ncnc12 | 52.6% |
| O=C(Nc1cnccc1Cl)N1CCN(Cc2ccc3c(c2)OC(F)(F)O3)CC1 | 0.49% |
| CN1CCN(C(c2ccccc2)c2ccc(Cl)cc2)CC1 (stereo not drawn) | -5.27% |

Further values, each from its own experiment
Tested at: 10 µM
Time: 16 h
| Structure (SMILES) | cell line | effect on | technique | organism | reference | measurement | value |
| --- | --- | --- | --- | --- | --- | --- | --- |
| Cc1nnc(NS(=O)(=O)c2ccc(N)cc2)s1 | HEK-293T/ACE2 | – | – | – | vehicle | viability | 102% |
| C[C@H](CCC(=O)O)[C@H]1CC[C@H]2[C@@H]3[C@H](O)C[C@@H]4C[C@H](O)CC[C@]4(C)[C@H]3C[C@H](O)[C@]12C | HEK-293T | pseudovirus infection | FDA-approved drug library screen | VSV pseudotyped with SARS-CoV-2 spike | vehicle-treated | GFP-positive cells | 80.6% |

Some of these lines once more (study 4):
| Structure (SMILES) | inhibition |
| --- | --- |
| Nc1ccn([C@@H]2O[C@H](CO)[C@@H](O)[C@@H]2O)c(=O)n1 | -3.02% |
| COc1ccc(/C=C/CCCCOc2ccc(C(=O)c3cccc(C(=O)O)c3)cc2CCC(=O)O)cc1 | 13.4% |
| c1cnc2cc3c(cc2n1)[C@@H]1CNC[C@H]3C1 | 3.99% |
| CN1C2C=C(c3sccc3Br)CC1CC2 (stereo not drawn) | 1.06% |
| CN(C(=O)CCCOc1ccc2[nH]c(=O)ccc2c1)C1CCCCC1 | -5.99% |
| COc1cc(C(=O)N2CCOCC2)cc(OC)c1OC | 1.38% |
| CCN1CCCC(OC(=O)C(c2ccccc2)c2ccccc2)C1 (stereo not drawn) | -1.02% |
